# Results collected from several papers.
# Protocols differ between the studies behind these lines. ± marks the error that the study gave.
# Cell line: Caco-2 monolayers
Structure (SMILES),test,system,conditions,scale,measurement,value
O=C(CCc1ccc(O)cc1)c1c(O)cc(O)cc1O[C@@H]1O[C@H](CO)[C@@H](O)[C@H](O)[C@H]1O,,,"100 µg/mL, 2 h",baseline: Papp(BL-AP) over Papp(AP-BL),efflux ratio,1.93 ± 1.2
CCCCC(CC)COC(=O)c1ccc(O)cc1 (centres unmarked),,cell lysate,"5 µM, 1 h, apical to basolateral",baseline: starting concentration,cellular accumulation,17%
COc1cc(C2Oc3cc([C@H]4Oc5cc(O)cc(O)c5C(=O)[C@@H]4O)ccc3OC2CO)ccc1O (some centres unmarked),,,"100 µg/mL, 2 h",baseline: Papp(BL-AP) over Papp(AP-BL),efflux ratio,0.9 ± 0.08
C[C@H]1O[C@@H](O[C@H]2[C@@H](O)C[C@H](O[C@H]3[C@@H](O)C[C@H](O[C@H]4CC[C@@]5(C)[C@H](CC[C@@H]6[C@@H]5C[C@@H](O)[C@]5(C)[C@@H](C7=CC(=O)OC7)CC[C@]65O)C4)O[C@@H]3C)O[C@@H]2C)C[C@H](O)[C@@H]1O,,,"5 µM, 2 h, pH apical 6.5, basolateral 7.4",,Papp (A to B),0.68 ×10⁻⁶ cm/s
COc1ccc([C@@H]2CC(=O)c3c(O)cc(O)cc3O2)cc1O,"bidirectional transport, HPLC-UV",,"100 µg/mL, 2 h",baseline: BL→AP over AP→BL,efflux ratio,> 2
O=S1(=O)OC(c2ccc(O)cc2)(c2ccc(O)cc2)c2ccccc21,,apical mixed micelles,500 µM,,paracellular flux,0.02 ± 0.005 %/h/cm²
CC(=O)N[C@H]1[C@H]([C@H](O)[C@H](O)CO)OC(C(=O)O)=C[C@@H]1N=C(N)N,,,"concentration not given, 180 min, apical to basolateral, added: calcium-free HBSS",baseline: HBSS with calcium,Papp fold increase,56.2 fold
OCCc1ccccc1O,"bidirectional transport, HPLC-UV",,"100 µg/mL, 2 h",baseline: BL→AP over AP→BL,efflux ratio,> 2
O=C(CS)NCCCCCC(=O)Nc1cccc2cccnc12,,,added: verapamil 100 µM,baseline: B-A over A-B,efflux ratio,0.73
OC[C@H]1O[C@@H](Oc2cc(O)cc(/C=C/c3ccc(O)cc3)c2)[C@H](O)[C@@H](O)[C@@H]1O,"bidirectional transport, HPLC-UV",,"100 µg/mL, 2 h",baseline: BL→AP over AP→BL,efflux ratio,> 2
O=c1c(-c2ccc(O)cc2)coc2c([C@@H]3O[C@H](CO)[C@@H](O)[C@H](O)[C@H]3O)c(O)ccc12,basolateral to apical transport,,"100 µg/mL, 2 h",,amount transported,4.4 ± 1.4%

# A few entries again:
Structure (SMILES),test,system,conditions,scale,measurement,value
O=S1(=O)OC(c2ccc(O)cc2)(c2ccc(O)cc2)c2ccccc21,,apical mixed micelles,500 µM,,paracellular flux,0.02 ± 0.005 %/h/cm²
